Measured values gathered from unrelated publications.
± gives the spread as reported.
Organism: Plasmodium falciparum

Compound	observed	technique	strain	sample	time	notes	IC50
Cc1ccc(C(C)C)cc1.[Cl][Ru+].[O-]c1ccccc1C=NCCNc1ccnc2cc(Cl)ccc12	parasite growth	parasite lactate dehydrogenase	D10 chloroquine-sensitive	–	–	–	70 ± 7 nM
CC[C@H](C)[C@@H]1NC(=O)[C@H](CCCCN)NC(=O)[C@H](CCCCN)NC(=O)[C@H](Cc2ccc(O)cc2)NC(=O)[C@H](CC(C)C)NC(=O)[C@@H]2CCCN2C(=O)CNC(=O)CNC(=O)[C@@H](N)CSSC[C@@H](C(=O)N[C@@H](CCC(=O)O)C(=O)N[C@@H](CO)C(N)=O)NC(=O)[C@H](CC(C)C)NC(=O)[C@H](CCCCN)NC(=O)[C@H](CCCCN)NC(=O)[C@H]([C@@H](C)CC)NC(=O)[C@H]([C@@H](C)CC)NC(=O)[C@H](CCCCN)NC(=O)[C@H](CCCCN)NC(=O)[C@H](Cc2ccc(O)cc2)NC(=O)[C@H](CC(C)C)NC(=O)[C@@H]2CCCN2C(=O)[C@H](C)NC(=O)CNC(=O)CNC(=O)[C@H](CO)NC(=O)CNC(=O)CNC(=O)[C@H](CO)NC(=O)[C@H](CCC(=O)O)NC(=O)[C@H](CC(C)C)NC(=O)[C@H](CC(C)C)NC(=O)[C@H](CCCCN)NC(=O)[C@H](CCCCN)NC(=O)[C@H]([C@@H](C)CC)NC1=O	parasite growth	–	3D7	–	72 h	5% serum plus Albumax II	16900 ± 1100 nM
CCc1c(-c2ccc[nH]2)c[nH]c1C=NC12CC3CC(CC(C3)C1)C2	parasite growth	–	7G8, chloroquine-resistant	–	–	–	> 2500 nM
CN(C)CCNC(=O)/C=C/C(Cc1ccccc1)Nc1ccnc2cc(Cl)ccc12 (stereo not shown)	parasite growth	SYTOX green flow cytometry	K1 chloroquine-resistant	–	48 h	ring stage	145 ± 18.6 nM
Cc1[nH]c2ccccc2c1C1CCN(CC2CCC(NC(=O)/C=C/c3ccc(Cl)c(Cl)c3)CC2)CC1 (stereo not shown)	parasite growth	–	3D7	–	72 h	asynchronous culture	≤ 50 nM
CC[C@H](C)[C@@H]1NC(=O)[C@H](CCCCN)NC(=O)[C@H](CCCNC(=N)N)NC(=O)[C@H](Cc2ccc(O)cc2)NC(=O)[C@H](CC(C)C)NC(=O)[C@@H]2CCCN2C(=O)[C@H](C)NC(=O)CNC(=O)CNC(=O)[C@H](CO)NC(=O)CNC(=O)CNC(=O)[C@H](CO)NC(=O)[C@H](CCC(=O)O)NC(=O)[C@H](CC(C)C)NC(=O)[C@H](CC(C)C)NC(=O)[C@H](CCCCN)NC(=O)[C@H](CCCCN)NC(=O)[C@H]([C@@H](C)CC)NC(=O)[C@H]([C@@H](C)CC)NC(=O)[C@H](CCCCN)NC(=O)[C@H](CCCNC(=N)N)NC(=O)[C@H](Cc2ccc(O)cc2)NC(=O)[C@H](CC(C)C)NC(=O)[C@@H]2CCCN2C(=O)CNC(=O)CNC(=O)[C@@H](NC(=O)CN)CSSC[C@@H](C(N)=O)NC(=O)[C@H](CC(C)C)NC(=O)[C@H](CCCCN)NC(=O)[C@H](CCCCN)NC(=O)[C@H]([C@@H](C)CC)NC1=O	parasite growth	–	3D7	–	72 h	5% serum plus Albumax II	11300 ± 700 nM
CCC1(c2ccccc2)OOC2(CCN(C(=O)c3ccccc3)CC2)OO1	parasite growth	imaging	3D7	–	48 h	blood stage	18.4 nM
COc1ccc2cc1Oc1cc3c(cc1OC)CCN(C)C3Cc1ccc(cc1)Oc1c(O)c(OC)cc3c1C(C2)N(C)CC3 (stereo not shown)	parasite growth	SYBR green I	INDO or Cam3.1 R539T	human red blood cells	72 h	–	< 1000 nM
COc1ccc2c(c1)[n+]([O-])c(C#N)c(-c1ccco1)[n+]2[O-]	parasite growth	[3H]hypoxanthine incorporation	K1 chloroquine-resistant	–	–	–	280 ± 70 nM
CC[C@H](C)[C@@H]1NC(=O)[C@H](CCCCN)NC(=O)[C@H](CCCCN)NC(=O)[C@H](Cc2ccc(O)cc2)NC(=O)[C@H](CC(C)C)NC(=O)[C@@H]2CCCN2C(=O)[C@H](C)NC(=O)CNC(=O)CNC(=O)[C@H](CO)NC(=O)CNC(=O)CNC(=O)[C@H](CCCNC(=N)N)NC(=O)[C@H](CCC(=O)O)NC(=O)[C@H](CC(C)C)NC(=O)[C@H](Cc2c[nH]cn2)NC(=O)[C@H](CCCCN)NC(=O)[C@H](CCCCN)NC(=O)[C@H]([C@@H](C)CC)NC(=O)[C@H]([C@@H](C)CC)NC(=O)[C@H](CCCCN)NC(=O)[C@H](CCCCN)NC(=O)[C@H](Cc2ccc(O)cc2)NC(=O)[C@H](CC(C)C)NC(=O)[C@@H]2CCCN2C(=O)CNC(=O)CNC(=O)[C@@H](NC(=O)CN)CSSC[C@@H](C(N)=O)NC(=O)[C@H](Cc2c[nH]cn2)NC(=O)[C@H](CCCCN)NC(=O)[C@H](CCCCN)NC(=O)[C@H]([C@@H](C)CC)NC1=O	parasite growth	–	3D7	–	72 h	Albumax II medium, no serum	> 67500 nM
O[Si](CCCN1CCCCC1)(c1ccc(F)cc1)C1CCCCC1 (stereo not shown)	parasite proliferation	SYBR Green	3D7	–	72 h	–	16 nM
c1cncc(CCCOCCCCCCOC2CCCCO2)c1 (stereo not shown)	–	anti-HRPII ELISA	W2 chloroquine-resistant	–	72 h	–	53700 ± 700 nM
CC[C@H](C)[C@@H]1NC(=O)[C@H](CCCNC(=N)N)NC(=O)[C@H](CCCNC(=N)N)NC(=O)[C@H](Cc2ccc(O)cc2)NC(=O)[C@H](CC(C)C)NC(=O)[C@@H]2CCCN2C(=O)[C@H](C)NC(=O)CNC(=O)CNC(=O)[C@H](CO)NC(=O)CNC(=O)CNC(=O)[C@H](CO)NC(=O)[C@H](CCC(=O)O)NC(=O)[C@H](CC(C)C)NC(=O)[C@H](CC(C)C)NC(=O)[C@H](CCCNC(=N)N)NC(=O)[C@H](CCCNC(=N)N)NC(=O)[C@H]([C@@H](C)CC)NC(=O)[C@H]([C@@H](C)CC)NC(=O)[C@H](CCCNC(=N)N)NC(=O)[C@H](CCCNC(=N)N)NC(=O)[C@H](Cc2ccc(O)cc2)NC(=O)[C@H](CC(C)C)NC(=O)[C@@H]2CCCN2C(=O)CNC(=O)CNC(=O)[C@@H](NC(=O)CN)CSSC[C@@H](C(N)=O)NC(=O)[C@H](CC(C)C)NC(=O)[C@H](CCCNC(=N)N)NC(=O)[C@H](CCCNC(=N)N)NC(=O)[C@H]([C@@H](C)CC)NC1=O	parasite growth	–	3D7	–	72 h	5% serum plus Albumax II	12500 ± 1200 nM
CCC1=C(C)C(=CNC2CCCCCCC2)N=C1c1ccc[nH]1	parasite growth	–	Dd2, chloroquine-resistant	–	–	–	60 nM
C=CC1CN2CCC1CC2C(OC(=O)NCCCCCCNC(=O)OC(c1ccnc2ccc(OC)cc12)C1CC2CCN1CC2C=C)c1ccnc2ccc(OC)cc12 (stereo not shown)	parasite growth	–	C6 7G8 pfcrt transfectant	–	–	–	82 ± 12 nM
CCNCC1=C(O)C(=O)c2ccccc2C1=O	parasite growth	–	W2	–	–	drug-resistant strain, blood stage	30600 nM

Compound	observed	technique	strain	sample	time	notes	IC50
CC[C@H](C)[C@@H]1NC(=O)[C@H](CCCCN)NC(=O)[C@H](CCCCN)NC(=O)[C@H](Cc2ccc(O)cc2)NC(=O)[C@H](CC(C)C)NC(=O)[C@@H]2CCCN2C(=O)[C@H](C)NC(=O)CNC(=O)CNC(=O)[C@H](CO)NC(=O)CNC(=O)CNC(=O)[C@H](CO)NC(=O)[C@H](CCC(=O)O)NC(=O)[C@H](CC(C)C)NC(=O)[C@H](CC(C)C)NC(=O)[C@H](CCCCN)NC(=O)[C@H](CCCCN)NC(=O)[C@H]([C@@H](C)CC)NC(=O)[C@H]([C@@H](C)CC)NC(=O)[C@H](CCCCN)NC(=O)[C@H](CCCCN)NC(=O)[C@H](Cc2ccc(O)cc2)NC(=O)[C@H](CC(C)C)NC(=O)[C@@H]2CCCN2C(=O)[C@H](C)NC(=O)CNC(=O)[C@@H]2CSSC[C@H](NC(=O)[C@H](CC(C)C)NC(=O)[C@H](CCCCN)NC(=O)[C@H](CCCCN)NC(=O)[C@H]([C@@H](C)CC)NC1=O)C(=O)N[C@@H](CCCCN)C(=O)N[C@@H](CC(N)=O)C(=O)NCC(=O)N2	parasite growth	–	3D7	–	72 h	Albumax II medium, no serum	13100 ± 1000 nM
CCC1=C(C)C(=CNC23CC4CC(CC(C4)C2)C3)N=C1c1ccc[nH]1	parasite growth	–	Dd2, chloroquine-resistant	–	–	–	4.3 nM
CC[C@H](C)[C@@H]1NC(=O)[C@H](CCCCN)NC(=O)[C@H](CCCCN)NC(=O)[C@H](Cc2ccc(O)cc2)NC(=O)[C@H](CC(C)C)NC(=O)[C@@H]2CCCN2C(=O)[C@H](C)NC(=O)CNC(=O)CNC(=O)[C@H](CO)NC(=O)CNC(=O)CNC(=O)[C@H](CO)NC(=O)[C@H](CCCCN)NC(=O)[C@H](CC(C)C)NC(=O)[C@H](CC(C)C)NC(=O)[C@H](CCCCN)NC(=O)[C@H](CCCNC(=N)N)NC(=O)[C@H]([C@@H](C)CC)NC(=O)[C@H]([C@@H](C)CC)NC(=O)[C@H](CCCCN)NC(=O)[C@H](CCCCN)NC(=O)[C@H](Cc2ccc(O)cc2)NC(=O)[C@H](CC(C)C)NC(=O)[C@@H]2CCCN2C(=O)CNC(=O)CNC(=O)[C@@H](NC(=O)CN)CSSC[C@@H](C(N)=O)NC(=O)[C@H](CC(C)C)NC(=O)[C@H](CCCCN)NC(=O)[C@H](CCCNC(=N)N)NC(=O)[C@H]([C@@H](C)CC)NC1=O	parasite growth	–	3D7	–	72 h	Albumax II medium, no serum	3200 ± 200 nM
COc1cc(O)c(-c2ccc(OC)c3c(O)cc(C)c(-c4cc(-c5c(O)cc(OC)c6c5C[C@@H](C)N[C@@H]6C)c5cc(C)cc(OC)c5c4O)c23)c2c1[C@@H](C)N(C)[C@H](C)C2	parasite growth	–	K1	–	–	drug-resistant strain, blood stage	26 nM
OCCc1cc(CN(Cc2ccccn2)Cc2ccccn2)c(O)c(CN(Cc2ccccn2)Cc2ccccn2)c1	growth	[3H]hypoxanthine incorporation	W2 chloroquine-resistant	–	48 h	–	347 ± 73 nM
Cc1c(-c2ccc[nH]2)c[nH]c1C=NC12CC3CC(CC(C3)C1)C2	parasite growth	–	Dd2, chloroquine-resistant	–	–	–	> 2500 nM
COc1cc2c3c4c1Oc1cc5c(cc1O4)[C@H](Cc1ccc(OCCCN(C)C)c(c1)Oc1ccc(cc1)C[C@@H]3N(C)CC2)N(C)CC5	parasite growth	SYBR Green I	artemisinin-resistant Cambodian isolates	–	–	median	88 nM
CCC1=C(C)C(c2ccc[nH]2)=NC1=CNC12CC3CC(CC(C3)C1)C2	parasite growth	–	7G8, chloroquine-resistant	–	–	–	14 nM
C[OH+][Cu-2]12[O]C(c3cn(-c4ccccc4)nc3-c3ccccc3)=N[N+]1=C(C)c1c(cc(C)oc1=O)[O]2 (stereo not shown)	–	SYBR Green I	3D7	–	72 h	–	5200 nM
Clc1ccc(C2=CC(c3ccc[nH]3)=NC2=CNC23CC4CC(CC(C4)C2)C3)cc1	parasite growth	–	Dd2, chloroquine-resistant	–	–	–	> 250 nM
C#CCOc1ccc(C=NNC(=N)NN=Cc2ccc(OCC#C)cc2)cc1	parasite growth	SYBR Green	SB1-A6, respiratory inhibitor resistant	–	72 h	–	153 nM
CC1=CC(=CNC23CC4CC(CC(C4)C2)C3)N=C1c1ccc[nH]1	parasite growth	–	Dd2, chloroquine-resistant	–	–	–	170 nM
CC[C@H](C)[C@@H]1NC(=O)[C@H](CCCCN)NC(=O)[C@H](CCCCN)NC(=O)[C@H](Cc2ccc(O)cc2)NC(=O)[C@H](CC(C)C)NC(=O)[C@@H]2CCCN2C(=O)[C@H](C)NC(=O)CNC(=O)CNC(=O)[C@H](CO)NC(=O)CNC(=O)CNC(=O)[C@H](CO)NC(=O)[C@H](CCC(=O)O)NC(=O)[C@H](CC(C)C)NC(=O)[C@H](CC(C)C)NC(=O)[C@H](CCCCN)NC(=O)[C@H](CCCCN)NC(=O)[C@H]([C@@H](C)CC)NC(=O)[C@H]([C@@H](C)CC)NC(=O)[C@H](CCCCN)NC(=O)[C@H](CCCCN)NC(=O)[C@H](Cc2ccc(O)cc2)NC(=O)[C@H](CC(C)C)NC(=O)[C@@H]2CCCN2C(=O)[C@H](C)NC(=O)CNC(=O)[C@@H]2CSSC[C@H](NC(=O)[C@H](CC(C)C)NC(=O)[C@H](CCCCN)NC(=O)[C@H](CCCCN)NC(=O)[C@H]([C@@H](C)CC)NC1=O)C(=O)N[C@@H](CCC(N)=O)C(=O)N[C@@H](CC(N)=O)C(=O)NCC(=O)N2	parasite growth	–	3D7	–	72 h	5% serum plus Albumax II	24700 ± 3000 nM
CCC1=C(C)C(c2ccc[nH]2)=NC1=CNC1CCCCCC1	parasite growth	–	Dd2, chloroquine-resistant	–	–	–	200 nM
COc1cccc2c(-c3ccc(O)c4c3CCNC4)ccc(O)c12	parasite growth	SYBR Green	W2	–	96 h	drug-resistant strain, blood stage	796 nM
